Results pooled from the literature.
Parts stem from different laboratories: compare values within a part only.

Series 1
Target: Sal-like protein 4, full length isoform B (SALL4, Homo sapiens, UniProt Q9UJQ4-2, residues 1-616)
Technique: universal PBM
Form: double-stranded DNA, one strand shown
Matrix: in vitro
Concentration: not given
Notes: 8-mer, flanks averaged, mean of replicates
Direction: higher = stronger binding
Sequence | E-score
GTCCCCGA | -0.198
TAAAGGGA | 0.124
CACGGCTC | -0.267
TGATGCCA | 0.0279
CGAAAGCA | -0.0197
GGATGTCA | -0.0198
TCCCTCGA | -0.209
CTTCTATA | 0.239
ATCTCTGA | 0.0207
CTGTAAAC | 0.226
TGCGCCCA | -0.245
AGGAGAAA | 0.0423
TCAACGCA | 0.0174
CCATAGCA | 0.0144
ACACAAGT | 0.139
AAATGGTT | 0.199
AAGCCAGA | -0.214

Series 2
Target: Histone acetyltransferase KAT6A, winged helix 1, GST fusion (KAT6A, Homo sapiens, UniProt Q92794, residues 1-85)
Technique: protein binding microarray
Form: double-stranded DNA, one strand shown
Matrix: in vitro
Concentration: not given
Notes: 8-mer, flanks averaged, mean of 2 arrays, mostly near background
Reference: not given
Direction: higher = stronger binding
Residues (chain): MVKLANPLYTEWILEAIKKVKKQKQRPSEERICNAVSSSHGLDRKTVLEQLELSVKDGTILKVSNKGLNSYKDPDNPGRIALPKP
Sequence | E-score
ACTTACAA | -0.0468
GATCGACA | -0.0946
AATAACCG | 0.162
TTATCCAA | -0.194
AGGTTGCG | -0.0475
AGTTAGGC | -0.158
GAACCATA | -0.208
AGAGATAC | -0.0857
GGGGTTAA | -0.0516
CTTAAAGC | -0.178
CACTCCTC | -0.193
AAAGTCCC | -0.0668
GAGACTAC | 0.00284
CCCGTCCA | 0.255
CGATGACA | 0.0157
ATTCTACC | -0.171
CCTCAAGC | -0.0446
TGCCTAAA | -0.227
CAATCGTC | -0.0986
CTGTTTTA | -0.108
AGCAGCCT | -0.175
GAATATCC | -0.0278
CGCTCTTC | 0.152
CACTTCCC | -0.0283
AGCGGTAT | 0.289

Series 3
Target: RNA binding protein fox-1 homolog 2, RRM domain, GST-SBP tag (RBFOX2, Homo sapiens, UniProt O43251-10, residues 100-194)
Technique: RNA Bind-n-Seq
Form: RNA
Matrix: in vitro
Concentration: 365 nM
Notes: natural RNA segment, single round, ends assumed
Reference: no-protein control
Direction: higher = stronger binding
Constant ends, left off below: GGGAGUUCUACAGUCCGACGAUC … UGGAAUUCUCGGGUGCCAA
Residues (chain): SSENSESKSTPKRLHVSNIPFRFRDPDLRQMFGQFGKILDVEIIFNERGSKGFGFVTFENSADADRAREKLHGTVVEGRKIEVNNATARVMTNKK
Sequence | RBNS enrichment (R)
AACAUUGAGAUGUGUUUUUAAUGUUAAAAUAUUGAUUUCUACGUUAUGAAAACAGAUGCCCCCGUGAAUGCUUACCUGUGAGAUAACCACAACCAGGAAGAACAAAUCUG | 0.712
UGUCAAUUUGCAUCAUUUGCAUAUUGAUUUCAAGUCUCCUAAUUUGGAAUGGGUAAAGUACAAAUGUUAAUGCAACAUAGUACAGUUGUAUUUGUCCUUCAUAUUCAGGA | 0.411
AUCAUGACAGGAAUGAACCCAAACUCAGAACAAUAAAAUCAAUUCUGUGCUCCCCACGCGGGGCUUGAUCCUCGUGUGUGUGUCUGAGAGCUCCAACGGAGCAAGCAAGA | 0.385
CUUCUCUGUCCUUAGUUGUGAGCUUCUCCAUGCUGUGCCAAUGGCUAGCCUUUUCUACACCCUCUUUUGAGUGUAGUUUGAUAUUUUGUAAUCAAAAGCUCAUUUCACAA | 0.464
ACUCAGCUGUACCUGUCUGCCUGGACUGUCCCCUGUCCCCGCAUCUCCCCUGGGACCAGCUGGAGGGCCACAUGCACACACAGCCUAGCUGCCCCCAGGGAGCUCUGCUG | 0.752
UGGCCCCACCCUGGGCCCUGGGCUGGAAUCAGGAAUAUUUUCCAAAGAGUGAUAGUCUUUUGCUUUUGGCAAAACUCUACUUAAUCCAAUGGGUUUUUCCCUGUACAGUA | 0.3
CUAAGCCAAGUUUCUUUUAGAGACAUUUUAACUUAUUUAGCUGAACUCUAGAUUUUUUGGUAAACUAUCAAUCUGUAUAUGUUGUAAUUAAGUGUCUAAUGCUAGGAGUU | 0.572
UUUUCAGAGCAGCUAGAUGUCUGCAUGUGUGCAUAUAUGCAUGCCCACUCCUUUCAUAUACGUUUGUGAAGCACCUGCCUUGAGUUCUAAUAAAAUUGCCCGUUUUGCAU | 11.1

Series 4
Target: RING finger protein unkempt homolog, zinc fingers 1-6, GST-SBP tag (UNK, Homo sapiens, UniProt Q9C0B0, residues 30-357)
Sequence of UniProt Q9C0B0 (30-357, looked up): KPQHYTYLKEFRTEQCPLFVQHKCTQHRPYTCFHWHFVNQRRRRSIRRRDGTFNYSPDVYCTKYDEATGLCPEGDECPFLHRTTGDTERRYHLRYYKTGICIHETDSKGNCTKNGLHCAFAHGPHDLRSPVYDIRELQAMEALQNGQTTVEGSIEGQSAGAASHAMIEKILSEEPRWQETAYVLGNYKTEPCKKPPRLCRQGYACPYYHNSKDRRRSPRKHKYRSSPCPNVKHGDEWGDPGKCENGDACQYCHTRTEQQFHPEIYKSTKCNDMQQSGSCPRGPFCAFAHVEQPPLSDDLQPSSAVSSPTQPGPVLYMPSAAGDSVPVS
Technique: RNA Bind-n-Seq
Form: RNA
Matrix: in vitro
Concentration: not given
Notes: RNA with constant flanks, human-mouse chimeric sites, ends assumed
Reference: input RNA pool
Direction: higher = stronger binding
Constant ends, left off below: GGGAGUUCUACAGUCCGACGAUC … CAACAGAGGAUUGAGCAUCA
Sequence | bound/input enrichment
GGUGGGGUGGUCAUUGCGCCAAUUGAGGCUGAUUUUCAUGAGUCGCCUUCAAAACUCUCGUGUAGGGUUGACAAUGUGGGGGGGUGGGGGAUCCAGCUUAUUCUUUUAUUUUCAAGUCCA | 0.695 ratio
AUAGAUGAAAUUGAUGUGGACCAGGAAGGAAUUGCUGAAAUGAUGCUGGAUGAAAAUGCUAUUGCUCAGGUCCCACGCCCUGGCACAUCUUUGAAGCUCCCUGGAACUAACCAAACAGGA | 0.238 ratio
UUAAACACCAAGCUGAUGGACUCUGAUGGCCUCCAUCUCUCAGGCACGUGUGCCUUCUCUUAGUCCCUGUUUUCGGGAUGUUAUGAAUCUCAGUACUGUGGUUUGAAAGCACCAGCUUUG | 0.155 ratio
CCCCACAACCAUUUGCAGGUCUGGAACUGCACUCUCUUUUUUAAAAAAUAUGCAUAUAUUUUAGGGCUGUAGAUUUAUUUUCCUGGUUUUGUUUUUCAUUGCUGACUUUUGAGCACAGAA | 1.07 ratio
UAAGUUAUUUUGUACAGCUUUGUAAAUUGUAUAGCUUUUUAUAUUGCCAUGUUUAUUUUGUUUGGGUAAUUUGGUUCAUACAUGGCCUAGCUAAGGUAAUGAACAUCUUUUUCAGUAAUU | 0.96 ratio
GUGUCCUUUCAACUUAAUAAAUCACUGAGGCAUCUCUACUGUUCUGUGAGCAUCAGGAUUUUAGUGCUGUGUCACCACAUGAGAGUUCAGAAGCAGCCUUUCUGUGGAGGGUGGGAAUGA | 0.18 ratio
AACAGAUUUCUCAAGCAGUCAACGUAGGAGAAUGCUGGGGUGAUCAUUGUUGCCCAUGUGCCUUCUGACUGAGCUUUAAUGCUGUUCCAUGUUACAUCUUUCCUUCACUCCAGAAUUGUU | 0.139 ratio
AACAGAUUGUCUUUAAGCAUUCCAAGCAAUGCUUGGGGGGUGAUCAUUGUUGCCCAUGUGCCUUCUGACUGAGCUUUAAUGCUGUUCCAUGUUACAUUGAUGUUCUUCUCCAGAAUUGUU | 0.143 ratio

Series 5
Target: Interferon regulatory factor 3, full length, phosphomimetic (IRF3, Homo sapiens, UniProt Q14653, residues 1-427, S386D/S396D/S398D/S402D/T404D/S405D)
Sequence of UniProt Q14653 (whole entry, unmodified, looked up): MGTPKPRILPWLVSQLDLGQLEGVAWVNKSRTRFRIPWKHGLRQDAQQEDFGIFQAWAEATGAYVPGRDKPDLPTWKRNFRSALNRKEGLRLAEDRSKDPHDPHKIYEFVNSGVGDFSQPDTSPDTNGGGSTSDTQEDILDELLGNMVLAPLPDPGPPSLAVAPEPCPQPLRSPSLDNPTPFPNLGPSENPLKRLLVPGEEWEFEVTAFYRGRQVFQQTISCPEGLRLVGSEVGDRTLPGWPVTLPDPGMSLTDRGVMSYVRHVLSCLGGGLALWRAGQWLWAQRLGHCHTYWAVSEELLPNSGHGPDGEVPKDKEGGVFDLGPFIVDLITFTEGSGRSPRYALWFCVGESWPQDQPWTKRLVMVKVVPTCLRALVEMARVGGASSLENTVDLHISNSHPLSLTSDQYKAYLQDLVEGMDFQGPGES
Technique: protein-binding microarray
Form: double-stranded DNA, one strand shown
Matrix: in vitro
Concentration: 2540 nM top
Notes: 60-bp whole probe
Added: salmon DNA 0.4 mg/ml
Reference: random background probes
Direction: higher = stronger binding
Constant ends, left off below: GCCTAGCAC … GTCTTGATTCGCTTGACGCTGCTG
Sequence | fitted relative affinity [z-score]
TTAGTTTTCAGTTTCGATTAGTGCTAG | 6.16
TAGCATGTAATTTGTTTGCAGTGCTAG | -0.335
TTAGGTTCCAGTTTCGGTTAGTGCTAG | 7.56
GACGGTCTCCTTATCCTGAGGTGCTAG | 2.91
GACGGTTTAGACTATCGGGACGTGCTA | 0.468
TTAGGTTTCGACTTTCGGTTGGTGCTA | 3.67
AGTGGCCCAGGGCATCCCCTGTGCTAG | -1.18
GACGAACTGAGTCTCGTGACGTGCTAG | -0.428
TTAGAACTGAGTCTCGCTTAGTGCTAG | -0.538
GATGGTATCGACTTTCGGGACGTGCTA | 1.04
GATGGTTTCGGTTCCGGGACGTGCTAG | 10.4
AGTTCTCTGAAGACTCTCTTGGTGCTA | 0.588
GACGATATCAGTTTAGAGACGTGCTAG | 1.45
TTAGGTATCGGACTGGGTAAGTGCTAG | 1.21
ACCGTTGTAGTTTTCATTATGTGCTAG | 2.29
TTAGATTTCAGTATCGATTCGTGCTAG | 3.4
GACGAACTGGGGGTTCGAGACGTGCTA | -0.477
TTAGGTATCGCGACTGGGTTAGTGCTA | -0.201
GACGGTTACGGGACTGGGGACGTGCTA | -0.0925

For quick reference, copied from above (series 2):
Sequence | E-score
TTATCCAA | -0.194
AGGTTGCG | -0.0475
AGTTAGGC | -0.158
GAACCATA | -0.208
AGAGATAC | -0.0857
GGGGTTAA | -0.0516
CTTAAAGC | -0.178
CACTCCTC | -0.193
AAAGTCCC | -0.0668
GAGACTAC | 0.00284
